Experimental data collected from several papers.
Each numbered part is a random draw from the data of one study; scales do not carry over between parts. Changes are numbered by the printed parent chain.
UniProt Q9UM73, sequence (whole entry, looked up): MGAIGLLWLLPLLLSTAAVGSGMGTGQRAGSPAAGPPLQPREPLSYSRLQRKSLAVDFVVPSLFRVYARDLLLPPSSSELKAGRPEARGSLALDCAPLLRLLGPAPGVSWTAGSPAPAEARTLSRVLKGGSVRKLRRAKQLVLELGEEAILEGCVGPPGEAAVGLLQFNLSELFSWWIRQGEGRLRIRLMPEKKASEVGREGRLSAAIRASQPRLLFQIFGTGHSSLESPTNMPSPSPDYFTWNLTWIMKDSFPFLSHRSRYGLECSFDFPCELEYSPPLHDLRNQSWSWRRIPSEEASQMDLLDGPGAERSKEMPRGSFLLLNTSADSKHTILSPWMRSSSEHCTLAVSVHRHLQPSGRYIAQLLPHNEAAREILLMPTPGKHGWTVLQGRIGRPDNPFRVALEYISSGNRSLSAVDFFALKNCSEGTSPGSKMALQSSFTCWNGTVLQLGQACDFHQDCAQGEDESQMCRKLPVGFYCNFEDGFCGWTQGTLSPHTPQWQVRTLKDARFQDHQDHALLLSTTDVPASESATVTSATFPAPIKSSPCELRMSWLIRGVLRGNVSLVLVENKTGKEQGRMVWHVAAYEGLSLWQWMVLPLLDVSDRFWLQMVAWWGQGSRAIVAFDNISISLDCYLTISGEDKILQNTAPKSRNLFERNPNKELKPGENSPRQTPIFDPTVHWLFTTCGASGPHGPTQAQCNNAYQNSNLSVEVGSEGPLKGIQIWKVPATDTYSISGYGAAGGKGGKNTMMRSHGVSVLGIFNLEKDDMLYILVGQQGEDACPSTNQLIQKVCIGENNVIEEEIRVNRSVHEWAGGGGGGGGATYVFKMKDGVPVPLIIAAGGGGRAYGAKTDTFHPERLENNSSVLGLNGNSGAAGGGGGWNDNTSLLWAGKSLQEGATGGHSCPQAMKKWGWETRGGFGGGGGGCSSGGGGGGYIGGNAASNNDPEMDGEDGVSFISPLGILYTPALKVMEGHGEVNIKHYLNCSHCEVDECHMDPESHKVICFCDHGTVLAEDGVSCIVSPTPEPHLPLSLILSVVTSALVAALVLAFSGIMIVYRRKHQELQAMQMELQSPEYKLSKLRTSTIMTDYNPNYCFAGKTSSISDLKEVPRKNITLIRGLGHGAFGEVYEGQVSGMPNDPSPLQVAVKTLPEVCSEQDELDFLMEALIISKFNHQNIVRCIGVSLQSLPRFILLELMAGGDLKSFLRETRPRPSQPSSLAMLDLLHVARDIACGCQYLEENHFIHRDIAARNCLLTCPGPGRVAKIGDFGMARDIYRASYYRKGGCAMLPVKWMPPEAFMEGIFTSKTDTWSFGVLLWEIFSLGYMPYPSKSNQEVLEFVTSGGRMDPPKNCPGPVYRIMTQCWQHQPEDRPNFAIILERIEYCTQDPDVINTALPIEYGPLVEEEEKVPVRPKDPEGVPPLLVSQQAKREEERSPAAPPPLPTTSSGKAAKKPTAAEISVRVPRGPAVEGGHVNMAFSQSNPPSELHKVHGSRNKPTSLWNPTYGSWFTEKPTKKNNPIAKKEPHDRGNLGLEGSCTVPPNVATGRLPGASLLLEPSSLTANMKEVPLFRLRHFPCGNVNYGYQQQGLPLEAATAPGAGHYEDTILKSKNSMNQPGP
UniProt Q9UBS0, sequence (whole entry, looked up): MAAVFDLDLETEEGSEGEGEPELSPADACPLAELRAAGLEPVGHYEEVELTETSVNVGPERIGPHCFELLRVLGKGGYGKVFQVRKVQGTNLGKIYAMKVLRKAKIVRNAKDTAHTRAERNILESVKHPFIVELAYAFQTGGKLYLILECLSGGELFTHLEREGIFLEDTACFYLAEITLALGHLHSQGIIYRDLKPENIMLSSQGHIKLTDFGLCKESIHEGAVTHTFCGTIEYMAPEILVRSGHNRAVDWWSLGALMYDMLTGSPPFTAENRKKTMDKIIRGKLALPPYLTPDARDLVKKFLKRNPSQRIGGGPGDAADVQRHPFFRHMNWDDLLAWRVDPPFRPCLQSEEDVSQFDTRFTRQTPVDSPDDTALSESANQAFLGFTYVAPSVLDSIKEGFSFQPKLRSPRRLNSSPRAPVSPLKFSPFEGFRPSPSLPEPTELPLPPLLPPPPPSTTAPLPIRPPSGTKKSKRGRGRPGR
UniProt P23458, sequence (whole entry, looked up): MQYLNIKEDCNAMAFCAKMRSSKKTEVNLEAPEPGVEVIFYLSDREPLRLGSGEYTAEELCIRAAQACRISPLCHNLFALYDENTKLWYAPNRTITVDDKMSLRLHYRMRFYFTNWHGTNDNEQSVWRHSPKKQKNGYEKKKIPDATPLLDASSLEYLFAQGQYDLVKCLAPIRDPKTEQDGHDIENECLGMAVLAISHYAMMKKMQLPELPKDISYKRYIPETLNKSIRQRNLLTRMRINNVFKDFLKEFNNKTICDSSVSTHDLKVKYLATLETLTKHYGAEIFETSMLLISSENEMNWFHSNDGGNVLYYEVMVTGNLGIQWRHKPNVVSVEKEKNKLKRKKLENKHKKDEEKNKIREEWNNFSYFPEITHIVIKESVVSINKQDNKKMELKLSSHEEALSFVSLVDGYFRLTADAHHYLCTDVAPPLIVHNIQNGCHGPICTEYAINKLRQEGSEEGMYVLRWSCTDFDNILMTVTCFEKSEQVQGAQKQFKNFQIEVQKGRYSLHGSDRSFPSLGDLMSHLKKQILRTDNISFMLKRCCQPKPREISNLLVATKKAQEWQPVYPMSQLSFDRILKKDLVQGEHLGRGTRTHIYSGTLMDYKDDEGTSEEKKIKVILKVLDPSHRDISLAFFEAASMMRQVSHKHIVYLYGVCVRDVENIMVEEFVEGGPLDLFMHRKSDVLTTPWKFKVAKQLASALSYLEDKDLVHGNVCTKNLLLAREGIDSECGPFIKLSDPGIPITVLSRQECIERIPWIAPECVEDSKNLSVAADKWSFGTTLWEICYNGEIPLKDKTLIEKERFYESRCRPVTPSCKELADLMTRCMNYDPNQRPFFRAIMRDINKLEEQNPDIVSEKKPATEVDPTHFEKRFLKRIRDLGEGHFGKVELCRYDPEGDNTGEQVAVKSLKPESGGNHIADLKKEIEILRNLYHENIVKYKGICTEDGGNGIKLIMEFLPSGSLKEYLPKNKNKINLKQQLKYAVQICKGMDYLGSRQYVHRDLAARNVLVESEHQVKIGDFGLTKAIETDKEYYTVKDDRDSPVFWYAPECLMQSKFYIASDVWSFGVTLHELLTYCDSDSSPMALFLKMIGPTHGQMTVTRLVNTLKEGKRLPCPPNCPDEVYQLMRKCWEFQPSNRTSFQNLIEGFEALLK
UniProt P57059, sequence (whole entry, looked up): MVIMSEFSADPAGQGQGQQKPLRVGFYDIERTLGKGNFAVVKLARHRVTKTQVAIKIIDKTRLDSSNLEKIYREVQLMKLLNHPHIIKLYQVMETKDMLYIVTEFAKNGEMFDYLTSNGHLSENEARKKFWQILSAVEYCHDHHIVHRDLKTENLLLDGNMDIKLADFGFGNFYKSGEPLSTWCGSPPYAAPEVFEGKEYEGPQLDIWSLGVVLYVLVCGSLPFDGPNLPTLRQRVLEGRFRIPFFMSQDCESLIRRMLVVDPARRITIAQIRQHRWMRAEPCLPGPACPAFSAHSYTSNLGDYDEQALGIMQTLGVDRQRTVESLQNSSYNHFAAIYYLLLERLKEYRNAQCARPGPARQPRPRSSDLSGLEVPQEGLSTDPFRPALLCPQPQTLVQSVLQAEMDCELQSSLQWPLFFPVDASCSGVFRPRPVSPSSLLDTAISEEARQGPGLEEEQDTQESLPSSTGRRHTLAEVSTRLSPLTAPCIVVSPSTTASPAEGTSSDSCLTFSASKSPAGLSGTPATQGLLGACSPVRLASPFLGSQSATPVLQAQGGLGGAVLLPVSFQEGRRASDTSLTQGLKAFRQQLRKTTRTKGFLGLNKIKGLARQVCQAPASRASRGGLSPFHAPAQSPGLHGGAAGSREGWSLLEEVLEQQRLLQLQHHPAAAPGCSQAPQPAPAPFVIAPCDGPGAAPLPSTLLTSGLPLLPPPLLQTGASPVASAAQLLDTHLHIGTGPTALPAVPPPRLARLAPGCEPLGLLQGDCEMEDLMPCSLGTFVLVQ
UniProt Q9P0L2, sequence (whole entry, looked up): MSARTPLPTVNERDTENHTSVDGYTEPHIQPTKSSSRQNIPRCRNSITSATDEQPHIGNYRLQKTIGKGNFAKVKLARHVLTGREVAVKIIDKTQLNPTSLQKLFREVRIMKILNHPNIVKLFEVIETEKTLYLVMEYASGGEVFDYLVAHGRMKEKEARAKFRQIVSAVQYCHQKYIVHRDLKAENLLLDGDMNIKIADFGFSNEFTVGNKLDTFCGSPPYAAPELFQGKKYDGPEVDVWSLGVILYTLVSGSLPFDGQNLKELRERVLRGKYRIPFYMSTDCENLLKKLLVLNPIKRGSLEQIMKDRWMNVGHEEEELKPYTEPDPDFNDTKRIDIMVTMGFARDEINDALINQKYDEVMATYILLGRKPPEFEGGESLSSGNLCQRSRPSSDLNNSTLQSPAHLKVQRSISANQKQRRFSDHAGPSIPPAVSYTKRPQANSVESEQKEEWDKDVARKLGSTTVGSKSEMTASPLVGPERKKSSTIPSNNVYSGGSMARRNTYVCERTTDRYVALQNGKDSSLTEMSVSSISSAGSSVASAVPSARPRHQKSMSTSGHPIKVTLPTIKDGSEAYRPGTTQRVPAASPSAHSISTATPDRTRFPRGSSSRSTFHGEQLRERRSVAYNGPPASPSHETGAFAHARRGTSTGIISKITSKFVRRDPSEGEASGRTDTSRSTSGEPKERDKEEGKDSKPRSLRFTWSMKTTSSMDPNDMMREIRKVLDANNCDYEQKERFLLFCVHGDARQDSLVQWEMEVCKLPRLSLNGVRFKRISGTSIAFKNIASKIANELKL

Set 1 — SMILES: Cn1cnc2cc3c(Nc4cccc(Br)c4)ncnc3cc21; observed: enzyme activity; action: inhibitor; tested at: 0.5 µM; reference: control
| target | remaining activity |
| --- | --- |
| Calcium/calmodulin-dependent protein kinase type 1 (CAMK1, Homo sapiens, UniProt Q14012) | 106% |
| Serine/threonine-protein kinase PAK 1 (PAK1, Homo sapiens, UniProt Q13153) | 91.4% |
| Casein kinase I isoform delta (CSNK1D, Homo sapiens, UniProt P48730) | 93.9% |
| Cyclin-dependent kinase 5, with p35 (CDK5, Homo sapiens, UniProt Q00535) | 84.6% |
| Serine/threonine-protein kinase MARK1 (MARK1, Homo sapiens, UniProt Q9P0L2) | 94.3% |
| Ribosomal protein S6 kinase beta-2 (RPS6KB2, Homo sapiens, UniProt Q9UBS0) | 96.8% |
| Serine/threonine-protein kinase pim-1 (PIM1, Homo sapiens, UniProt P11309) | 73.8% |
| Cyclin-dependent kinase 2, with cyclin E (CDK2, Homo sapiens, UniProt P24941) | 78.2% |
| Muscle, skeletal receptor tyrosine-protein kinase (MUSK, Homo sapiens, UniProt O15146) | 85.3% |
| Tyrosine-protein kinase JAK1 (JAK1, Homo sapiens, UniProt P23458) | 96.4% |
| Serine/threonine-protein kinase PAK 6 (PAK6, Homo sapiens, UniProt Q9NQU5) | 95% |
| Vascular endothelial growth factor receptor 1 (FLT1, Homo sapiens, UniProt P17948) | 77.4% |
| Serine/threonine-protein kinase PAK 4 (PAK4, Homo sapiens, UniProt O96013) | 105% |

Set 2 — tested at: 1 µM
SMILES: CCC(=O)N[C@H]1CC[C@@H](C(=O)N(C)c2ccc(-c3nc4ccccc4o3)cc2)C1
| target | assay | remaining binding |
| --- | --- | --- |
| Mitogen-activated protein kinase kinase kinase 13 (MAP3K13, Homo sapiens, UniProt O43283) | cell-free assay, competition with immobilised ligand | 87% |
| Serine/threonine-protein kinase SIK1 (SIK1, Homo sapiens, UniProt P57059) | competition binding | 89% |
| Serine/threonine-protein kinase PRP4 homolog (PRPF4B, Homo sapiens, UniProt Q13523) | cell-free assay, competition with immobilised ligand | 99% |
| ALK tyrosine kinase receptor (ALK, Homo sapiens, UniProt Q9UM73) | cell-free assay, competition with immobilised ligand | 86% |
| Dual specificity mitogen-activated protein kinase kinase 7 (MAP2K7, Homo sapiens, UniProt O14733) | cell-free assay, competition with immobilised ligand | 82% |

Set 3 — technique: DHFR PCA, dose-response; matrix: yeast; setting: Hill fit, mean, not affinity; together with: (+)-ABA, dose series; reading: lower = more sensitive
Target: ABI1, truncated, D143A, DHFR fusion (Arabidopsis thaliana, UniProt P49597)
Starting sequence: PYL1, truncated, DHFR fusion (Arabidopsis thaliana, UniProt Q8VZS8); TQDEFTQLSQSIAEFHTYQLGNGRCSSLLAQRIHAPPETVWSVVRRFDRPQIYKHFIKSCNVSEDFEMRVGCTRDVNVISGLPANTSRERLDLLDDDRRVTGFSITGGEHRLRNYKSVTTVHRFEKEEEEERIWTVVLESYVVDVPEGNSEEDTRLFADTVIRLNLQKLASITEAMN
| Variant | ABA EC50 [µM] |
| --- | --- |
| K116I | 196 |
| I162H | 655 |
| P146H | 620 |
| E174H | 17 |
| D96A | 169 |
| D97L | 6.37 |
| T17D | 23.6 |
| C72N | 4.93 |

Mixed results
| Compound | test system | measurement | result |
| --- | --- | --- | --- |
| CCOC(=O)[C@@H]1CSCC(=O)N[C@H](CC)C(=O)N(C)[C@@H](C)C(=O)N[C@@H](CC(C)C)C(=O)N2CCC[C@H]2C(=O)N(CC(C)C)CC(=O)N[C@H](CC(C)C)C(=O)N(C)[C@H](C)C(=O)N[C@@H](CC(C)C)C(=O)N1C | hydrocarbon/water | logD | 0.569 |

Excerpt of the above (set 3):
| Variant | ABA EC50 [µM] |
| --- | --- |
| C72N | 4.93 |
| D96A | 169 |
| I162H | 655 |
| D97L | 6.37 |
